Literature values, collected from citations in different studies.
Protocols differ between the studies behind these lines. ± gives the spread as reported. Values after ≈ are worked out from the molar mass of the structure shown.

| Compound | assay | test system | conditions | scale | measurement | result |
| --- | --- | --- | --- | --- | --- | --- |
| COC[C@@H](NC(C)=O)C(=O)NCc1ccc(OCc2ccccc2F)cc1 | – | mouse, MES seizure | intraperitoneal, time of peak effect | – | ED50 | 6.7 mg/kg |
| CC[C@@H]1CN2CCc3c([nH]c4cccc(OC)c34)[C@@H]2C[C@@H]1/C(=C\OC)C(=O)OC | competitive indirect ELISA | urine | – | – | IC50 | 1.2 ng/mL (≈ 3.01 nM) |
| O=C1C2C=CC1C=C2 | CO loss | – | 300 K | – | rate constant | 420000 s⁻¹ |
| O=C(/C=C/c1ccc(OCCN2CCNCC2)cc1)c1ccccc1 | antioxidant activity | – | – | – | EC50 | 22.8 nM |
| O=C1N[C@@H](Cc2ccccc2)C(=O)N2CCC[C@@H]2C(=O)N[C@@H](Cc2ccccc2)C(=O)N[C@H]1Cc1c[nH]c2ccccc12 | antinociception | C57BL/6J mouse | intracerebroventricular, at peak response | – | ED50 | 1.74 nmol |
| COC[C@@H](NC(C)=O)C(=O)NCc1ccc(OCc2cccc(F)c2)cc1 | – | rats, tibial nerve injury | ip, 10 mg/kg | – | duration of reversal of allodynia | ~4 h |
| CC1(C)C(=O)N(c2ccc(C#N)c(C(F)(F)F)c2)C(=S)N1c1ccc(C(N)=O)c(F)c1 | – | human, metastatic castration-resistant prostate cancer | dose not given | – | activity | active |
| COC[C@@H](NC(C)=O)C(=O)NCc1ccc(OCc2ccccc2)cc1 | psychomotor seizure protection | mouse 6 Hz seizure model | intraperitoneal, with: 32 mA stimulus | – | ED50 | < 15 mg/kg |
| CC1(O)CC23CC(O)C4(O)C(C5OC5C4(C)C)C(C)(O)C2CCC1C3O (stereo not shown) | – | diabetic neuropathic pain model | dose not given | baseline: gabapentin | relative potency | 100 fold |
| F[P-](F)(F)(F)(F)F.NCCN.[Cl][Ru+].c1ccc(-c2ccccc2)cc1 | – | mouse breast cancer model, primary tumour | 7.5 mg/kg/day | – | tumour growth inhibition | 30% |
| C[C@]12CC[C@@H](O)C[C@@H]1CC[C@@H]1[C@@H]2C(=O)C[C@]2(C)C(C#N)=CC[C@@H]12 | loss of swimming reflex | tadpole | – | – | EC50 | 5480 ± 120 nM |
| COc1cc(C=O)ccc1OCc1cccc(CO)n1 | – | sickle cell whole blood | 2 mM | – | HbS modification | 18% |
| O=[N+]([O-])c1ccc(-c2cc(C3CC4CCC3N4)cnc2F)cc1 (racemic) | hypothermia | mouse | – | – | ED50 | 0.21 mg/kg |

Repeated from above:
| Compound | assay | test system | conditions | scale | measurement | result |
| --- | --- | --- | --- | --- | --- | --- |
| CC[C@@H]1CN2CCc3c([nH]c4cccc(OC)c34)[C@@H]2C[C@@H]1/C(=C\OC)C(=O)OC | competitive indirect ELISA | urine | – | – | IC50 | 1.2 ng/mL (≈ 3.01 nM) |
